# Published values collected from several papers.
# Compare with care: the assays were run in different laboratories. “And” joins repeats or separate records; there may be more than shown. ± marks the error that the study gave.
# ESR1: Estrogen receptor (ESR1, Homo sapiens, UniProt P03372)
# CASP4: Caspase-4 (CASP4, Homo sapiens, UniProt P49662)
# Protein S100-B: Protein S100-B (Homo sapiens, UniProt P04271)
# Fibroblast growth factor 2 with pentraxin 3: Fibroblast growth factor 2, with pentraxin 3 (Homo sapiens, UniProt P09038)
# T1: FMN riboswitch (Lactobacillus plantarum); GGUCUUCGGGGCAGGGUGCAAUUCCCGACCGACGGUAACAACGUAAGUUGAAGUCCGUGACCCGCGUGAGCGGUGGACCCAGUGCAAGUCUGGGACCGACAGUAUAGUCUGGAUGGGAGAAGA
# B1: UGT1A9 (Homo sapiens, UniProt O60656); chain GKLLVVPMDGSHWFTMRSVVEKLILRGHEVVVVMPEVSWQLGRSLNCTVKTYSTSYTLEDLDREFKAFAHAQWKAQVRSIYSLLMGSYNDIFDLFFSNCRSLFKDKKLVEYLKESSFDAVFLDPFDNCGLIVAKYFSLPSVVFARGILCHYLEEGAQCPAPLSYVPRILLGFSDAMTFKERVRNHIMHLEEHLLCHRFFKNALEIASEILQTPVTEYDLYSHTSIWLLRTDFVLDYPKPVMPNMIFIGGINCHQGKPLPMEFEAYINASGEHGIVVFSLGSMVSEIPEKKAMAIADALGKIPQTVLWRYTGTRPSNLANNTILVKWLPQNDLLGHPMTRAFITHAGSHGVYESICNGVPMVMMPLFGDQMDNAKRMETKGAGVTLNVLEMTSEDLENALKAVINDKSYKENIMRLSSLHKDRPVEPLDLAVFWVEFVMRHKGAPHLRPAAHDLTWYQYHSLDVIGFLLAVVLTVAFITFKCCAYGYRKCLGKKGRVKKAHKSKTH
Substance,target or system,assay,system,conditions,how to read,endpoint,value
Cc1cc2nc3c(=O)[nH]c(=O)nc-3n(C[C@H](O)[C@H](O)[C@H](O)COP(=O)(O)O)c2cc1C,"T1, FMN riboswitch (Lactobacillus plantarum)",ITC,,"pH 7.5, 25 °C, NaCl 100 mM",,Kd,0.051 µM
C=CCNC1=C2C[C@@H](C)C[C@H](OC)[C@H](O)[C@@H](C)/C=C(\C)[C@H](OC(N)=O)[C@@H](OC)/C=C\C=C(/C)C(=O)NC(=CC1=O)C2=O,ESR1,western blot,MCF7,"1 µM, 0.5 h pretreatment, together with: 1 µM 4-hydroxytamoxifen 5.5 h",,OHT-induced ER degradation,inhibited
Cc1c(-c2cccc(NC(=O)c3ccc(F)c(F)c3)c2)nc2ncccn12,"GPR32 (Homo sapiens, UniProt O75388)","β-arrestin recruitment, agonist, PathHunter",CHO cells expressing GPR32,concentration not given,relative to: vehicle,efficacy,60.8%
B1 (UGT1A9),COc1cc(-c2oc3cc(O)ccc3c(=O)c2O)ccc1O,steady-state kinetics,,"pH 7.4, 37 °C",,Vmax,0.00588 µmol/min/mg
COc1ccc(/C=C/C(=O)Nc2ccccc2C(=O)O)cc1OC,CASP4,,,"33 µM, together with: LEHD substrate",relative to: solvent control,remaining activity,11.4%
COC(=O)CCC(C(=O)C=Cc1ccc(O)c(OC(F)(F)F)c1)C(=O)C=Cc1ccco1 (centres unmarked),"Amyloid-beta precursor protein (APP, Homo sapiens, UniProt P05067)","Aβ aggregation, SDS-PAGE western blot, refers to: Aβ1-42 75-200 kDa band",,"30 µM, 24 h, 37 °C, together with: Aβ1-42 10 µM",relative to: DMSO,band density,1430 ± 285%
GAGAGAGTTPGPG,"Polypeptide N-acetylgalactosaminyltransferase 4 (GALNT4, Homo sapiens, UniProt Q8N4A0)",substrate,peptide,"concentration not given, together with: UDP-[3H]GalNAc",,UDP-GalNAc hydrolysis,40 to 50%
CCC(CC)CSc1nc2c([nH]1)c(=S)n(C)c(=O)n2C,"Glucocorticoid receptor (Nr3c1, Rattus norvegicus, UniProt P06536)","reporter gene, antagonist, MMTV-luciferase",T47D/A1-2,"10 µM, 24 h, together with: 5 nM dexamethasone",relative to: maximal activity,remaining activity,89%
NS(=O)(=O)OC[C@@H]1C[C@@H](n2ccc3c(N[C@H]4CCc5ccccc54)ncnc32)C[C@@H]1O,"Epidermal growth factor receptor (EGFR, Homo sapiens, UniProt P00533, L858R)",western blot,H3255,"1 µM, 2 h pretreatment",,degrader-induced degradation,inhibited
COc1cc(C=O)ccc1O,UGT (rat),"4-MU glucuronidation, inhibitor",rat liver microsomes,,,lowest inhibitory concentration,≥ 0.1 µM
CO[C@H]1O[C@H](COS(=O)(=O)O)[C@@H](O[C@@H]2O[C@@H](C(=O)O)[C@@H](O[C@H]3O[C@H](COS(=O)(=O)O)[C@@H](O[C@@H]4O[C@H](C(=O)O)[C@@H](O[C@H]5O[C@H](COS(=O)(=O)O)[C@@H](O)[C@H](O)[C@H]5NS(=O)(=O)O)[C@H](O)[C@H]4O)[C@H](OS(=O)(=O)O)[C@H]3NS(=O)(=O)O)[C@H](O)[C@H]2OS(=O)(=O)O)[C@H](O)[C@H]1NS(=O)(=O)O,"Antithrombin-III (SERPINC1, Homo sapiens, UniProt P01008)",differential scanning fluorimetry,,"62.5 µg, antithrombin 1 mg/mL",,Tm,65.8 °C
CC(C(=O)O)c1ccc(C(=O)c2cccs2)cc1 (centres unmarked),CASP4,,,"33 µM, together with: LEHD substrate",relative to: solvent control,remaining activity,8.74%
O=S(=O)(O)c1cc(N=C=S)ccc1CCc1ccc(N=C=S)cc1S(=O)(=O)O,"SLC4A1 (Homo sapiens, UniProt P02730)",chloride exchange,human red blood cells,"pH 7.2, 0 °C, no chloride gradient",,ID50,0.38 µM and 0.19 µM and 0.28 µM and 0.24 µM
CSCC[C@H](NC(=O)[C@H](CC(C)C)NC(=O)[C@H](CCCCN)NC(=O)[C@H](CCCCN)NC(=O)[C@H](Cc1c[nH]cn1)NC(=O)[C@H](CCCNC(=N)N)NC(=O)[C@H](CO)NC(=O)[C@@H](NC(=O)[C@H](CO)NC(=O)[C@H](CCC(N)=O)NC(=O)CNC(=O)[C@H](CCCCN)NC(=O)[C@H](CCCCN)NC(=O)[C@H](CO)NC(=O)[C@H](CCCCN)NC(=O)[C@H](CC(C)C)NC(=O)[C@H](Cc1c[nH]cn1)NC(=O)[C@H](CO)NC(=O)[C@H](Cc1ccc(O)cc1)NC(C)=O)[C@@H](C)O)C(=O)N[C@@H](Cc1ccccc1)C(=O)N[C@@H](CCCCN)C(=O)N[C@H](C(=O)N[C@@H](CCC(=O)O)C(N)=O)[C@@H](C)O,Protein S100-B,"binding, NMR line shape, Kd from ITC",,"35 °C, low salt",,koff,760 ± 150 s⁻¹
CNc1ncnc2c1ncn2[C@H]1C[C@H](OP(=O)(O)O)[C@@H](COP(=O)(O)O)O1,"P2Y purinoceptor 6 (P2RY6, Homo sapiens, UniProt Q15077)","competitor, flow cytometry",1321N1 cells,"125 µM, 30 min preincubation, 37 °C, together with: fluorescent ligand 100 nM",,fluorescent ligand binding,no effect
CCN(c1ccc(Cl)cc1)S(=O)(=O)C1CC2OC1C(c1ccc(O)cc1)=C2c1ccc(O)cc1 (centres unmarked),ESR1,"reporter gene, antagonist",HepG2,together with: estradiol 10 nM,"relative to: E2 response, negative is inverse agonism",efficacy,7 ± 1%
CC(=O)N[C@@H](CCCCN)C(=O)N[C@@H](CCCNC(=N)N)C(=O)N[C@@H](CC(C)C)C(=O)N[C@@H](CCCNC(=N)N)C(=O)N[C@@H](CCCNC(=N)N)C(=O)N[C@@H](CO)C(=O)N[C@@H](C)C(=O)N[C@@H](Cc1c[nH]cn1)C(=O)N[C@@H](C)C(=O)N[C@@H](CCCNC(=N)N)C(=O)N[C@@H](CCCCN)C(=O)N[C@@H](CCC(=O)O)C(=O)N[C@H](C(=O)N[C@@H](CCC(=O)O)C(=O)N[C@@H](Cc1ccccc1)C(=O)N[C@@H](CC(C)C)C(=O)N[C@@H](CCCNC(=N)N)C(=O)N[C@@H](CC(C)C)C(=O)N[C@@H](CCCCN)C(=O)N[C@@H](CCCNC(=N)N)C(=O)N[C@H](C(=O)N[C@@H](CCCNC(=N)N)C(=O)N[C@@H](CC(C)C)C(=O)NCC(=O)N[C@@H](CC(C)C)C(=O)N[C@@H](CCC(=O)O)C(=O)N[C@@H](Cc1ccc(O)cc1)C(N)=O)[C@@H](C)O)[C@@H](C)O,Protein S100-B,"binding, ITC",,"concentration not given, 5 to 35 °C, low salt, together with: 5 mM Ca2+",,heat capacity change,-1.5 ± 0.3 kJ/mol/K
Cc1ccc2c(c1)sc(-c1ccc(N(C)C)cc1)[n+]2C,"Insulin, fibrils (INS, Bos taurus, UniProt P01317)",,amyloid fibrils,1 µM,relative to: pH 3.0 over pH 7.5,fluorescence increase,57.1 fold
CCCSc1nc2c([nH]1)c(=O)n(C)c(=O)n2C,"Androgen receptor (AR, Homo sapiens, UniProt P10275)","reporter gene, antagonist, PSA-luciferase",HeLa-A6,"10 µM, 24 h, together with: 5 nM dihydrotestosterone",relative to: maximal activity,remaining activity,108%
CC[C@H](C)[C@H](NC(=O)[C@H](CC(C)C)NC(=O)[C@H](CC(C)C)NC(=O)CNC(=O)[C@H](Cc1ccc(O)cc1)NC(=O)[C@H](CCCNC(=N)N)NC(=O)[C@H](CO)NC(C)=O)C(=O)N[C@@H](CCCCN)C(=O)N[C@@H](C)C(=O)N[C@@H](Cc1ccccc1)C(=O)N[C@@H](CO)C(=O)N[C@@H](CCSC)C(=O)N[C@H](C(=O)N[C@@H](C)C(=O)N[C@@H](C)C(=O)N[C@@H](CCC(=O)O)C(=O)N[C@H](C(=O)N[C@@H](C)C(=O)N[C@@H](CCCNC(=N)N)C(=O)N[C@@H](CCCNC(=N)N)C(=O)N[C@H](C(=O)N[C@@H](CCCNC(=N)N)C(=O)N[C@@H](CCC(=O)O)C(=O)N[C@@H](Cc1ccccc1)C(=O)N[C@@H](CCCNC(=N)N)C(N)=O)[C@@H](C)O)[C@@H](C)O)[C@@H](C)O,calmodulin 1-80 sites I and II,"calcium binding, Phe fluorescence titration",,"12 µM, pH 7.4, 22 °C, together with: 6 µM calmodulin",,apparent ΔG2,-13.6 ± 0.15 kcal/mol
O=C1C=CCCC1,"Enoyl-ACP reductase (Thermus thermophilus, UniProt P83818)","enzyme activity, substrate, steady-state turnover",,,,NAD(P)H oxidation rate,no effect
H-ARPCA-NH2 (C-amide),Fibroblast growth factor 2 with pentraxin 3,"binding to PTX3, competitor, surface plasmon resonance",peptide,together with: 150 nM free FGF2,,ID50,2000 µM
DDEPIYIEFDAHN,"Tyrosine-protein kinase CSK (CSK, Homo sapiens, UniProt P41240)",substrate,peptide,concentration not given,relative to: Glu or Asp Y-1 parent peptide,kcat/Km fold change,4.5 fold
CNC(=O)c1cc(Oc2ccc(NC(=O)Nc3ccc(Cl)c(C(F)(F)F)c3)cc2)ccn1,"Signal peptidase IB (spsB, Staphylococcus aureus, UniProt Q5HHB9)","enzyme activity, activator, FRET peptide cleavage",Escherichia coli membranes,10 µM,relative to: DMSO,stimulation,27%
O=S(=O)(C1CC2OC1C(c1ccc(O)cc1)=C2c1ccc(O)cc1)N(CC(F)(F)F)c1ccc(Cl)cc1 (centres unmarked),ESR1,"reporter gene, antagonist",HepG2,together with: estradiol 10 nM,"relative to: E2 response, negative is inverse agonism",efficacy,3 ± 2%
"Ac-ARPCA-NH2 (N-acetyl, C-amide)",Fibroblast growth factor 2 with pentraxin 3,"binding to PTX3, competitor, surface plasmon resonance",peptide,together with: 150 nM free FGF2,,ID50,120 µM
